Published values of several laboratories.
Parts stem from different laboratories: compare values within a part only.

Series 1
Target: PABPC1L2, full length, GST fusion (mouse, UniProt A0ABA7IW68)
Technique: RNAcompete
Molecule type: RNA
Sample: in vitro
Concentration: 20 nM
Setting: 7-mer, probes averaged, single round
Reference: mean of 7-mers
Direction: higher = stronger binding
Target sequence (chain): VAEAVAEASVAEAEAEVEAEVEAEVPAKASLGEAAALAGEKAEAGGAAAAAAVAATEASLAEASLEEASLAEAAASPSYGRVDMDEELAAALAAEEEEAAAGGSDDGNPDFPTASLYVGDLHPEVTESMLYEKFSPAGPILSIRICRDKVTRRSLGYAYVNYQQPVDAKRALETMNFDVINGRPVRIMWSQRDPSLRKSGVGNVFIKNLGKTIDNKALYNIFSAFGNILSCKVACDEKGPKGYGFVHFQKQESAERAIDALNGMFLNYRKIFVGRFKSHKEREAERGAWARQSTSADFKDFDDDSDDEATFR
Strand | 7-mer Z-score
GCUAGUA | -0.0518
UCUCCAU | -0.4
UUAUCUC | -0.344
CGAGGGU | -0.0228
UAUUUUG | -0.211
CAUUGCC | -0.311
ACCUGGU | -0.325
CUGGCUC | -0.144
ACCAUGA | -0.012
UCCGAGA | -0.115
CGAACCA | -0.119
UCAUGUA | -0.246
ACAGUUG | -0.0881
CUGUACC | -0.213
GAUGAAC | -0.0573
ACUGGUC | -0.128

Series 2
Target: Interferon regulatory factor 5, full length, phosphomimetic (IRF5, Homo sapiens, UniProt Q13568-2, residues 1-514, S451D/S453D/S456D/S462D)
Technique: protein-binding microarray
Molecule type: double-stranded DNA, one strand shown
Sample: in vitro
Concentration: 940 nM top
Setting: 60-bp whole probe
With: salmon DNA 0.4 mg/ml
Reference: random background probes
Direction: higher = stronger binding
Constant ends, left off below: GCCTAGCAC … GTCTTGATTCGCTTGACGCTGCTG
Strand | fitted relative affinity [z-score]
GACGGTTTCGGTTTCGGTACGTGCTAG | 16
TCATCTCTGGGTCGGGCACTGTGCTAG | 0.199
TTAGAACTGGGGTCTCGATTAGTGCTA | 0.94
AGAAATTTTTTTTCTAACTAGTGCTAG | -0.125
GACGATATCAGGACTGGAGACGTGCTA | -0.559
GACGGACTGGGGTATTGGGACGTGCTA | -0.191
GACGGTTTCGGACTGGGGTCGTGCTAG | 7.54
GACTATCTCAGTATCGAGACGTGCTAG | 2.25
GACGGTCTCCGTTTCGGGACGTGCTAG | 0.851
TTAGATCTAAGTATCGATTAGTGCTAG | 3.69
TTAGGTTTCCTTTCCCGTTAGTGCTAG | 2.18
TTAGGGATCCTACTGCTTTAGTGCTAG | -0.34
GACGACTTCAGTATCGAGACGTGCTAG | 1.9
GAGGATATCGGGACTGGAGACGTGCTA | -0.503
TTAGGTTTCGCTCTCGGTTAGTGCTAG | 10.3
TTAGGTTTCGGTATCGGTTTGTGCTAG | 15.8
TTAGATATCGGGATTGGATTAGTGCTA | -0.0753
CTTTACTTCACTCTCTGCTTGTGCTAG | 2.05
TCATGTTGCTGTTTGAGACTGTGCTAG | 0.104
GCACATGAGCCAAGCCTGCCGTGCTAG | -0.623
TTCGGTCTCGGTATCGGTTAGTGCTAG | 7.77

Series 3
Target: Ras GTPase-activating protein-binding protein 1, full length (G3BP1, Homo sapiens, UniProt Q13283)
Sequence of UniProt Q13283 (whole entry, looked up): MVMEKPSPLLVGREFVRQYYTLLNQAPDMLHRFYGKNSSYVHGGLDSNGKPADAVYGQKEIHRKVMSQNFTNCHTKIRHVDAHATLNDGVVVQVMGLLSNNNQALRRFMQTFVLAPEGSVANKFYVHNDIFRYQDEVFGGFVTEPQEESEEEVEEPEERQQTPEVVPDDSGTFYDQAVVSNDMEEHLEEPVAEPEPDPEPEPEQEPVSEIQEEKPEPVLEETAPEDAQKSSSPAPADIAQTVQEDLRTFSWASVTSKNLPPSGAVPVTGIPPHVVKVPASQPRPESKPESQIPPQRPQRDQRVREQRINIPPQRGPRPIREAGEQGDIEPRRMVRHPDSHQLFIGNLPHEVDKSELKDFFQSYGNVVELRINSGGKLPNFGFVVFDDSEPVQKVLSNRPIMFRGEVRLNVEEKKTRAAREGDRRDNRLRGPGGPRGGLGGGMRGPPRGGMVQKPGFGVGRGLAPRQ
Technique: RNA Bind-n-Seq
Molecule type: RNA
Sample: in vitro
Concentration: 200 nM
Setting: whole 134-nt RNA, ends assumed
With: 150 mM KCl
Reference: input library
Direction: higher = stronger binding
Constant ends, left off below: GGGAGUUCUACAGUCCGACGAUC … UGGAAUUCUCGGGUGUCAAGG
Strand | log2 enrichment
UGUGCUACACAUCGUAUGUACCGAAUCGGGGAAAAAAAGGGGAAAAAAAGGAAAAAAAGGGGAAAGUAUUAUGUUACGCCGUUCGGAUCU | -0.464
GCAGGAAGUAAAAACAAAUGGAAUUGCUUCGGAUAGUGGCAGGGGUGGGGGUUGCUAAGGAAAGGGUGGGAUGGGAGUGGGUAAAGAGUU | 0.849
GUCCUGUGCUACACAUCGUAUGUACCGAAUCGGGGCCCCGGGGCCCCGGGCCCCGGGGAAAGUAUUAUGUUACGCCGUUCGGAUCUGCAC | 1.17
UCUGAGGUCACCAAGCCUCCUCCUUGCUUGGAGAACUCCUCGCCUCCCUCCAGGAUUCCGGAGCCUGAAUCCCCAGCGAAGCCAAACGUC | 0.142
UCCUGUGCUACACAUCGUAUGUACCGAAUCGGUUUUUUUGGUUUUUUUGGAAAAAAAGGAAAGUAUUAUGUUACGCCGUUCGGAUCUGCA | -0.884
AAGUCCUGUGCUACACAUCGUAUGUACCGAAUCGGGGAAAAAGGGGAGGGGUGGGGAAAGUAUUAUGUUACGCCGUUCGGAUCUGCACUU | 0.526
CCUGUGCUACACAUCGUAUGUACCGAAUCGGGGAAAAAAAGGGGAGGGGUUUUUUUGGGGAAAGUAUUAUGUUACGCCGUUCGGAUCUGC | 0.192
GCAGGAAGUAAAAACAAAUGGAAAUGCUUCGGAUAGUGGCAGGGGUGGGGGUUGCUAAGGAAAGGGUGGGAUGGGAGUGGAUAAAGAGUU | 0.881
UCCUCAAGUCCUGUGCUACACAUCGUAUGUACCGAAUCGGUUUGGUGGAGGAAAGUAUUAUGUUACGCCGUUCGGAUCUGCACUUCCAGC | -0.631
UAACUUUAGAGGAGGAUCUGAUGGAUAUGGCAGUGGACGUGGAUUUGGGGAUGGCUAUAAUGGGUAUGGAGGAGGACCUGGAAGUGGCAA | 0.247
AAGUCCUGUGCUACACAUCGUAUGUACCGAAUCGGUUUGGUUUUUGGUUUUUUUGGAAAGUAUUAUGUUACGCCGUUCGGAUCUGCACUU | -1.33
UUAGGUGGCUCCAGGAUGUAUUUAACGUGCCCUUGGUCAUCCAGAUGACGGAUGACGAGAAGUAUCUGUGGAAGGACCUGACCCUGGACC | -0.507
CACAGACAACACGCACCCACACAGACACAGAGGGAAGGGGUUGGGAUGGGGAAAAGGUGCACAGCAGGGCGGGGUAGGACCCCAGCCCCU | 1.85
CUGUGCUACACAUCGUAUGUACCGAAUCGGGUUUUUUUGGUUUUUUUGGGGUUUUUUUGGGAAAGUAUUAUGUUACGCCGUUCGGAUCUG | -1

Series 4
Target: RNA binding protein fox-1 homolog 2, RRM domain, GST-SBP tag (RBFOX2, Homo sapiens, UniProt O43251-10, residues 100-194)
Technique: RNA Bind-n-Seq
Molecule type: RNA
Sample: in vitro
Concentration: 365 nM
Setting: natural RNA segment, single round, ends assumed
Reference: no-protein control
Direction: higher = stronger binding
Constant ends, left off below: GGGAGUUCUACAGUCCGACGAUC … UGGAAUUCUCGGGUGCCAA
Construct (chain): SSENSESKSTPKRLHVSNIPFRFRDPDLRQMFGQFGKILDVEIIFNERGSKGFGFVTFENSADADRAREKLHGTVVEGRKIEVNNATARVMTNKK
Strand | RBNS enrichment (R)
UCGUCCCUGCGCAGUCACCAAAGGGUGCACACUGGGCAACGGCCUUUCAGCUGUGGCAUCUGUGGCAAAAGCUUCUCCCAACGGUCAGCACUUAUCCCCCACGCCCGCAG | 0.492
AAUUUGUAUUUUGCAGACAAUUCAGUAAAGUUACUGGCUUUCUUAGUGAUGCAGUGUCCGUGGUGCAUUUUUUAAAUUAAUGUUUUGCUGUUUAAAUUUAUUCAAUUUUA | 0.716
CAGCACUGACCCUUUCCUAGUUUCCCUAAUGCUAUCACUUAAAUAUUACAACAAAUGGGAGGUUCUGACAUCCUAGACCAUCUCACUGAUGCGCCACCAGGAAUCCAGUC | 0.463
AAUGUAAAUAUUUUCUUUCCAAGUUGUAAGUUUUCAUAUCAUGUGUUGUAAAGUUUUCCUAAACGAGGCUUUAACGUAAACACUGGUGACAUAAACCAUUCAUUGCUACC | 0.478
ACUAUAUUCUAGUUUGGAGUACUUGCUGUAGGAUACAAGCUGUCUUUGCACUAGCUCUAAAGAAGAAUUUCUUCUGGUUUUAGAGAACUGAUUUUGUUUUAGCAUUAAAC | 0.417
UACUUCUAAUUUCAUUGUAUAUAGGUGGUUUUCCCUGGAAUUCAUUAAUUGUUUGCUUUGGACAUGUGGAAAGAGCCUUACUAAUAAAAUUGAUUUUGCUUAUGAAUUAA | 4.71
CACAUGCCAUUUCCCCAGCCUCAUUUGCUGGUGUCUGUAGGGUCCUCCCAAGGUGAGCUGAGGGCUGCAGGUGCUAGCCAGGAACAUGGGAGCUUGACUGUGGCUUCAGG | 0.672
GAGGCUUUGGGGUUUGUUUUUGUUUUCAUUUUUGUUCCCUCCCAUCCCUAACAUUUUUUUCCCCAAACUUGGGUCUGGAUGUAGAUUCUCACCCUAUGGCCUGAGUCCAA | 1.13
AGGCUCCAUUCCAAAGUGGGAAAGAAAUUCUGCUAGCAUUGUUUAAAUCAGGCAAAAUUUGUUCCUGAAGUUGCUUUUUACCCCAGCAGACAUAAACUGCGAUAGCUUCA | 0.389
AUGGUACAAAUUUAUUAAUAUGAAGAAAUGCAAAAUGUAUUGCUUUUGAUAUUUCUCUUCCGAGAUGAACAAGUAGCAUGUAAUGCAACUGUUUGACAGUUUAACUCAAG | 2.53
UUCAAAAGAAAACAUAAGAGAUUAUUGAGUUCUUGGGACUGGAUCCUUUAUUUCAUAAGUUCAGAUCAUCUUAAAUGAAAAUGCCAUGAUUAUCUGCAGUUAAGUAGAUG | 0.548
GGAGAACUGACUAGCUAAACUGCUACAGUAUGCAAUUUCUAUUACAAUUGGUAUUACAGGGGGGAAAAGUAAAAUUACACUUUACCUGAAAGUGACUUCUUACAGCUAGU | 0.355

Series 5
Target: Histone acetyltransferase KAT6A, winged helix 1, GST fusion (KAT6A, Homo sapiens, UniProt Q92794, residues 1-85)
Technique: protein binding microarray
Molecule type: double-stranded DNA, one strand shown
Sample: in vitro
Concentration: not given
Setting: 8-mer, flanks averaged, mean of 2 arrays, mostly near background
Reference: not given
Direction: higher = stronger binding
Residues (chain): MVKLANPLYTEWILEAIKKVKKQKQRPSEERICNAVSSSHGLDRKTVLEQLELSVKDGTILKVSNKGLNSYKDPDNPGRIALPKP
Strand | E-score
CGCGGTTA | 0.311
AAGTTGGC | -0.0566
AGTCCACA | -0.151
CTGTGTTA | 0.0155
AGTTAATA | -0.0606
TGATATAA | -0.0963
CTAAAGGA | -0.0215
GATTTACC | -0.0359
GCTGGGAA | -0.13
CCCCAGAG | -0.173
AAAGCTCC | -0.00806
CGATGTAC | 0.0427
CGCAAACA | 0.0203
GACGTCGA | -0.0403
GAACATAC | -0.0444
CGTAGTTA | 0.0799
TAGGGAGA | -0.0941
ACTCTTCG | -0.00044
CTCCTCCA | -0.216
AATGTGTA | -0.168
AGATCCGG | -0.0189
TACCTGAA | -0.0277
AGCGGAGA | -0.0361
ATACATGC | -0.00377
CCCGGTCA | 0.228

Repeated from above (series 2):
Strand | fitted relative affinity [z-score]
GACGGACTGGGGTATTGGGACGTGCTA | -0.191
GACGGTTTCGGACTGGGGTCGTGCTAG | 7.54
GACTATCTCAGTATCGAGACGTGCTAG | 2.25
GACGGTCTCCGTTTCGGGACGTGCTAG | 0.851
TTAGATCTAAGTATCGATTAGTGCTAG | 3.69
TTAGGTTTCCTTTCCCGTTAGTGCTAG | 2.18
TTAGGGATCCTACTGCTTTAGTGCTAG | -0.34
GACGACTTCAGTATCGAGACGTGCTAG | 1.9
GAGGATATCGGGACTGGAGACGTGCTA | -0.503
